Assay results pooled from the literature.
Each line is one published result; not all experiments were run side by side.
Target: Tyrosine-protein kinase SYK (SYK, Homo sapiens, UniProt P43405)

SMILES	assay	conditions	how to read	quantity	result
C1=C/COCc2cc(ccc2OCCN2CCCC2)Nc2nccc(n2)-c2cccc(c2)COC/1	–	concentration not given	relative to: DMSO control	remaining binding	87%
C=CC(=O)N1CCC(COCC(=O)N2CCN(c3nc(-c4cnc(N)nc4C(F)F)nc(N4CCOC[C@@H]4C)n3)CC2)CC1	KINOMEscan	1 µM	relative to: DMSO control	remaining binding	96%
CCN(CC)c1ccc(C2=NNC(=O)CC2C)cc1[N+](=O)[O-] (centres unmarked)	enzyme activity, inhibitor	10 µM	relative to: vehicle	remaining activity	69%
O=C1NC(=O)/C(=C/c2ccc(-c3ccc(F)cc3O)o2)S1	enzyme activity	10 µM	–	remaining activity	55%
O=C(NC1CCC1)c1ccc2nc(-c3cccc(NS(=O)(=O)NCCN4CCCCC4)c3)cn2c1	enzyme activity	10 µM	–	remaining activity	100%
Cc1cc(Nc2cc(N3CCN(C)CC3)nc(Sc3ccc(NC(=O)C4CC4)cc3)n2)[nH]n1	kinase activity, KinaseProfiler	0.03 µM, species human	relative to: control	remaining activity	98%
CCCOc1ccc(OC)c(F)c1C(=O)c1ccc(C(=O)N[C@@H]2CNC[C@H]2NC(=O)c2ccc3[nH]ncc3c2)cc1	enzyme activity	10 µM	–	remaining activity	50%
Cc1[nH]c(/C=C2\C(=O)Nc3ccc(F)cc32)c(C)c1C(=O)N[C@H]1CCN(C(=O)N(C)C)C1	kinase activity, inhibitor	1 µM	relative to: no-compound control	remaining activity	113%
COc1cc(-c2cncc3c2CN(C)Cc2cc(N4CCNCC4)ccc2-3)cc(OC)c1OC	kinase activity	1 µM, human enzyme, added: ATP 10 µM	relative to: DMSO control	remaining activity	84%
COc1cc(F)ccc1-c1ncnc(Nc2cccc(C[S@](C)(=N)=O)c2)n1	kinase activity	10 µM, added: 10 µM ATP	–	remaining activity	61%
C=CC(=O)N1CCC(C(=O)NCC(=O)N2CCN(c3nc(-c4cnc(N)nc4C(F)F)nc(N4CCOCC4)n3)CC2)CC1	KINOMEscan	1 µM	–	remaining binding	86%
C=CC(=O)N1CCC[C@@H](n2nc(-c3ccc(Oc4ccccc4)cc3)c3c(N)ncnc32)C1	–	10 µM	–	remaining activity	66.4%
C[C@@H](c1ccc(-n2cnc3c(N)ncnc32)cc1)N1CCc2nn(C)c(Cc3ccccc3)c2C1=O	KINOMEscan	0.1 µM	relative to: DMSO control	remaining binding	100%
COc1cc(N2CCN(C)CC2)ccc1Nc1nc(N)n(C(=O)NCc2c(Cl)cccc2Cl)n1	enzyme activity	10 µM	relative to: control	remaining activity	30%

Excerpt of the above:
SMILES	assay	conditions	how to read	quantity	result
CCN(CC)c1ccc(C2=NNC(=O)CC2C)cc1[N+](=O)[O-] (centres unmarked)	enzyme activity, inhibitor	10 µM	relative to: vehicle	remaining activity	69%
O=C1NC(=O)/C(=C/c2ccc(-c3ccc(F)cc3O)o2)S1	enzyme activity	10 µM	–	remaining activity	55%
